Experimental data of several laboratories.
“And” joins repeats or separate records; there may be more than shown.
Target: Cytochrome P450 3A4 (CYP3A4, Homo sapiens, UniProt P08684)
UniProt P08684, sequence (whole entry, looked up): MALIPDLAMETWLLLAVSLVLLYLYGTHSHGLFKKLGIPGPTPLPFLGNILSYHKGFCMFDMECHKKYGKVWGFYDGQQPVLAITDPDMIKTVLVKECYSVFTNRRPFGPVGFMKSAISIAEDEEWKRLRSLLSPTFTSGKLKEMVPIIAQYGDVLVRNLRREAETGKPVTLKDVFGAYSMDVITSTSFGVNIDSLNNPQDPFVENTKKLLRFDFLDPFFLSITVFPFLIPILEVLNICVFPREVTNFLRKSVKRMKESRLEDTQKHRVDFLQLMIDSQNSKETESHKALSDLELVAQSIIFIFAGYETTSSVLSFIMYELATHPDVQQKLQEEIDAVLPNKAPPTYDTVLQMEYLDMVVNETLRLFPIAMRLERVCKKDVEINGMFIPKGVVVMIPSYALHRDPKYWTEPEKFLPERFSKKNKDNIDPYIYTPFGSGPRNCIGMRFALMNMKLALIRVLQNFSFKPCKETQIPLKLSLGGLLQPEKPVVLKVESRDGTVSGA
Observed: enzyme activity
Mode: inhibitor

SMILES | species | sample | time | setting | together with | IC50
N=C(N)c1cccc(C[C@H](NS(=O)(=O)c2cccc(-c3ccc(Cl)cc3Cl)c2)C(=O)N2CCC(CCN)CC2)c1 | – | – | – | testosterone probe | – | > 10 µM and 11.8 µM
Cc1cc(/C=C/C#N)cc(C)c1Oc1nc(NC2CCN(Cc3ccc(S(C)(=O)=O)cc3)CC2)nc2ncccc12 | – | – | 10 min | – | – | 5.86 µM
Cc1ccc(OCC(=O)N(Cc2cccs2)c2ccn[nH]2)cc1 | human | liver microsomes | – | midazolam probe | – | 15 µM
C[C@@H](c1ccn(Cc2ccc(Cl)c(Cl)c2)n1)[C@](O)(Cn1cnnn1)c1ccc(F)cc1F | human | liver microsomes | – | midazolam probe | – | 5.18 µM
O=C(O)c1ccc(/C=C2\SC(=S)N(Cc3cccc(C(F)(F)F)c3)C2=O)cc1 | human | liver microsomes | – | midazolam probe | – | 26 µM
CNc1nc(SC)nc2ccccc12 | – | – | – | – | VR substrate | > 50 µM
C(#Cc1cncc(OC[C@@H]2CCN2)c1)c1ccccc1 | – | – | – | – | – | 9.73 µM
CC(C)c1ccc(Cn2ccc([C@H](C)[C@](O)(Cn3cnnn3)c3ccc(F)cc3F)n2)cc1 | human | liver microsomes | – | midazolam probe | – | 15.2 µM
COc1ccc2nc(C)cc(OCC(=O)Nc3ccccc3OC)c2c1 | – | – | – | – | VR substrate | > 50 µM
CCC(=O)N(C)c1ccc(Cl)c(Cl)c1 | – | human liver microsomes | 10 min | – | midazolam 2.5 µM and testosterone 50 µM | > 25 µM
CCc1ccc([C@@H]2C[C@H](C(F)(F)F)n3ncc(C(=O)NCc4ccc(OC)cc4)c3N2)cc1 | – | – | – | – | VR substrate | > 50 µM
c1ccc(C2(CCNC3CCC4(SCCS4)c4ccccc43)CCOC3(CCCC3)C2)nc1 (stereo not drawn) | human | liver microsomes | – | midazolam probe | – | 3.27 µM

Excerpt of the above:
SMILES | species | sample | time | setting | together with | IC50
CNc1nc(SC)nc2ccccc12 | – | – | – | – | VR substrate | > 50 µM
